Measured values pooled from the literature.
Each line is one published result; not all experiments were run side by side. ± marks the error that the study gave.

N=C(N)NCCC[C@@H]1NC(=O)[C@H](CCCCNC(=O)CC[C@H](NC(=O)CCOCCOCCOCCOCCNC(=O)CC[C@H](NC(=O)CN2CCN(CC(=O)O)CCN(CC(=O)O)CCN(CC(=O)O)CC2)C(=O)NCCOCCOCCOCCOCCC(=O)N[C@@H](CCC(=O)NCCCC[C@@H]2NC(=O)[C@@H](Cc3ccccc3)NC(=O)[C@H](CC(=O)O)NC(=O)CNC(=O)[C@H](CCCNC(=N)N)NC2=O)C(=O)NCCCC[C@@H]2NC(=O)[C@@H](Cc3ccccc3)NC(=O)[C@H](CC(=O)O)NC(=O)CNC(=O)[C@H](CCCNC(=N)N)NC2=O)C(=O)NCCCC[C@@H]2NC(=O)[C@@H](Cc3ccccc3)NC(=O)[C@H](CC(=O)O)NC(=O)CNC(=O)[C@H](CCCNC(=N)N)NC2=O)NC(=O)[C@@H](Cc2ccccc2)NC(=O)[C@H](CC(=O)O)NC(=O)CNC1=O [indium-111 labelled]
tissue uptake (female athymic nude mice, muscle; intravenous, 3 µCi, 24 h, U-87 MG glioma xenograft): 0.39 ± 0.26 %ID/g

N=C(N)NCCC[C@@H]1NC(=O)[C@H](CCCCNC(=O)CNC(=O)CNC(=O)CNC(=O)CC[C@H](NC(=O)c2ccc(NN=Cc3ccccc3S(=O)(=O)O)nc2)C(=O)NCC(=O)NCC(=O)NCC(=O)NCCCC[C@@H]2NC(=O)[C@@H](Cc3ccccc3)NC(=O)[C@H](CC(=O)O)NC(=O)CNC(=O)[C@H](CCCNC(=N)N)NC2=O)NC(=O)[C@@H](Cc2ccccc2)NC(=O)[C@H](CC(=O)O)NC(=O)CNC1=O [technetium-99m labelled]
tissue uptake (athymic nu/nu mouse, female, MDA-MB-435 xenograft, blood; intravenous, 30 min): 1.13 ± 0.21 %ID/g

CCCC[C@H](NC(=O)COCCOCCNC(=O)c1ccc(NN)nc1)C(=O)N[C@H]1CC(=O)NCCCC[C@@H](C(N)=O)NC(=O)[C@H](Cc2c[nH]c3ccccc23)NC(=O)[C@H](CCCNC(=N)N)NC(=O)[C@@H](Cc2ccccc2)NC(=O)[C@H](Cc2c[nH]cn2)NC1=O [technetium-99m labelled]
tissue uptake (C57 mouse, female, B16/F1 melanoma, spleen; intravenous, 0.037 MBq, 2 h): 0.11 ± 0.08 %ID/g

CSCC[C@H](NC(=O)[C@H](CC(C)C)NC(=O)[C@H](Cc1c[nH]cn1)NC(=O)CNC(=O)[C@@H](NC(=O)[C@H](C)NC(=O)[C@H](Cc1c[nH]c2ccccc12)NC(=O)[C@H](CCC(N)=O)NC(=O)CCCCNC(=O)CSCCSCCP(CO)CO)C(C)C)C(N)=O [technetium-99m labelled]
tissue uptake (female CF-1 mouse, carcass; intravenous, 4 h): 3.7 %ID

CCCC[C@H](NC(=O)CCCCCCCNC(=O)c1ccc(NN)nc1)C(=O)N[C@H]1CC(=O)NCCCC[C@@H](C(N)=O)NC(=O)[C@H](Cc2c[nH]c3ccccc23)NC(=O)[C@H](CCCNC(=N)N)NC(=O)[C@@H](Cc2ccccc2)NC(=O)[C@H](Cc2c[nH]cn2)NC1=O [technetium-99m labelled]
tissue uptake (C57 mouse, B16/F1 melanoma, pancreas; 2 h, with: NDP-MSH 10 µg (6.07 nmol) co-injected): 0.31 ± 0.1 %ID/g

CCCC[C@H](NC(=O)CNC(=O)CNC(=O)c1ccc(NN)nc1)C(=O)N[C@H]1CC(=O)NCCCC[C@@H](C(N)=O)NC(=O)[C@H](Cc2c[nH]c3ccccc23)NC(=O)[C@H](CCCNC(=N)N)NC(=O)[C@@H](Cc2ccccc2)NC(=O)[C@H](Cc2c[nH]cn2)NC1=O [technetium-99m labelled]
tissue uptake (C57 mouse, B16/F1 melanoma-bearing, brain; intravenous, 0.5 h): 0.1 ± 0.02 %ID/g

N=C(N)NCCC[C@@H]1NC(=O)[C@H](CC(=O)NC23CNCCNCC(N)(CNCCNC2)CNCCNC3)NC(=O)[C@@H](Cc2ccccc2)NC(=O)[C@H](CC(=O)O)NC(=O)CNC1=O [copper-64 labelled]
tissue uptake (Nu/Nu mouse, male, tumour-bearing, liver; intravenous, 10 µCi, 24 h): 2.24 ± 0.41 %ID/g

N=C(N)NCCC[C@@H]1NC(=O)[C@H](CCCCNC(=O)CCOCCOCCOCCOCCNC(=O)CC[C@H](NC(=O)CCOCCOCCOCCOCCNC(=O)CC[C@H](NC(=O)CN2CCN(CC(=O)O)CCN(CC(=O)O)CCN(CC(=O)O)CC2)C(=O)NCCOCCOCCOCCOCCC(=O)N[C@@H](CCC(=O)NCCOCCOCCOCCOCCC(=O)NCCCC[C@@H]2NC(=O)[C@@H](Cc3ccccc3)NC(=O)[C@H](CC(=O)O)NC(=O)CNC(=O)[C@H](CCCNC(=N)N)NC2=O)C(=O)NCCOCCOCCOCCOCCC(=O)NCCCC[C@@H]2NC(=O)[C@@H](Cc3ccccc3)NC(=O)[C@H](CC(=O)O)NC(=O)CNC(=O)[C@H](CCCNC(=N)N)NC2=O)C(=O)NCCOCCOCCOCCOCCC(=O)NCCCC[C@@H]2NC(=O)[C@@H](Cc3ccccc3)NC(=O)[C@H](CC(=O)O)NC(=O)CNC(=O)[C@H](CCCNC(=N)N)NC2=O)NC(=O)[C@@H](Cc2ccccc2)NC(=O)[C@H](CC(=O)O)NC(=O)CNC1=O [indium-111 labelled]
tissue uptake (female athymic nude mice, liver; intravenous, 3 µCi, 0.5 h, U-87 MG glioma xenograft): 4.09 ± 0.54 %ID/g

CC(C)C[C@H](NC(=O)[C@H](Cc1ccc(O)cc1)NC(=O)[C@@H](CCCNC(=N)N)NC(=O)[C@@H](CO)NC(=O)[C@H](Cc1ccccc1)NC(=O)[C@H](CC1CCCCC1)NC(=O)[C@H](CC(=O)O)NC(=O)CCC(C(=O)O)N1CCCN2CCN(CCCN(CC(=O)O)CC2)CC1)C(=O)N[C@@H](Cc1c[nH]c2ccccc12)C(=O)N[C@@H](CO)C(=O)O (some centres unmarked) [copper-64 labelled]
tissue uptake (female NMRI nude mice, bone; 22 h p.i.): 0.9 ± 0.3 %ID/g

CSCC[C@H](NC(=O)[C@H](CC(C)C)NC(=O)[C@H](Cc1c[nH]cn1)NC(=O)CNC(=O)[C@@H](NC(=O)[C@H](C)NC(=O)[C@H](Cc1c[nH]c2ccccc12)NC(=O)[C@H](CCC(N)=O)NC(=O)CCCCCNC(=O)CNC(=O)CNC(=O)CNC(=O)CSC(C)=O)C(C)C)C(N)=O [technetium-99m labelled]
tissue uptake (nude mouse, PC-3 xenograft, spleen; 30 min, with: excess unlabelled conjugate): 1.4 ± 0.12 %ID/g

N=C(N)NCCC[C@@H]1NC(=O)[C@H](CCCCNC(=O)CC[C@H](NC(=O)CCOCCOCCOCCOCCNC(=O)CN2CCN(CC(=O)O)CCN(CC(=O)O)CCN(CC(=O)O)CC2)C(=O)NCCCC[C@@H]2NC(=O)[C@@H](Cc3ccccc3)NC(=O)[C@H](CC(=O)O)NC(=O)CNC(=O)[C@H](CCCNC(=N)N)NC2=O)NC(=O)[C@@H](Cc2ccccc2)NC(=O)[C@H](CC(=O)O)NC(=O)CNC1=O [indium-111 labelled]
tissue uptake (female athymic nude mice, heart; intravenous, 3 µCi, 1 h, U-87 MG glioma xenograft): 0.69 ± 0.19 %ID/g

For quick reference, copied from above:
N=C(N)NCCC[C@@H]1NC(=O)[C@H](CCCCNC(=O)CCOCCOCCOCCOCCNC(=O)CC[C@H](NC(=O)CCOCCOCCOCCOCCNC(=O)CC[C@H](NC(=O)CN2CCN(CC(=O)O)CCN(CC(=O)O)CCN(CC(=O)O)CC2)C(=O)NCCOCCOCCOCCOCCC(=O)N[C@@H](CCC(=O)NCCOCCOCCOCCOCCC(=O)NCCCC[C@@H]2NC(=O)[C@@H](Cc3ccccc3)NC(=O)[C@H](CC(=O)O)NC(=O)CNC(=O)[C@H](CCCNC(=N)N)NC2=O)C(=O)NCCOCCOCCOCCOCCC(=O)NCCCC[C@@H]2NC(=O)[C@@H](Cc3ccccc3)NC(=O)[C@H](CC(=O)O)NC(=O)CNC(=O)[C@H](CCCNC(=N)N)NC2=O)C(=O)NCCOCCOCCOCCOCCC(=O)NCCCC[C@@H]2NC(=O)[C@@H](Cc3ccccc3)NC(=O)[C@H](CC(=O)O)NC(=O)CNC(=O)[C@H](CCCNC(=N)N)NC2=O)NC(=O)[C@@H](Cc2ccccc2)NC(=O)[C@H](CC(=O)O)NC(=O)CNC1=O [indium-111 labelled]
tissue uptake (female athymic nude mice, liver; intravenous, 3 µCi, 0.5 h, U-87 MG glioma xenograft): 4.09 ± 0.54 %ID/g
